Results pooled from the literature.
Numbered parts are unrelated; each lists some results of a single study. Changes are numbered by the printed parent chain.
Chain of UniProt Q9UKS7 (whole entry, looked up): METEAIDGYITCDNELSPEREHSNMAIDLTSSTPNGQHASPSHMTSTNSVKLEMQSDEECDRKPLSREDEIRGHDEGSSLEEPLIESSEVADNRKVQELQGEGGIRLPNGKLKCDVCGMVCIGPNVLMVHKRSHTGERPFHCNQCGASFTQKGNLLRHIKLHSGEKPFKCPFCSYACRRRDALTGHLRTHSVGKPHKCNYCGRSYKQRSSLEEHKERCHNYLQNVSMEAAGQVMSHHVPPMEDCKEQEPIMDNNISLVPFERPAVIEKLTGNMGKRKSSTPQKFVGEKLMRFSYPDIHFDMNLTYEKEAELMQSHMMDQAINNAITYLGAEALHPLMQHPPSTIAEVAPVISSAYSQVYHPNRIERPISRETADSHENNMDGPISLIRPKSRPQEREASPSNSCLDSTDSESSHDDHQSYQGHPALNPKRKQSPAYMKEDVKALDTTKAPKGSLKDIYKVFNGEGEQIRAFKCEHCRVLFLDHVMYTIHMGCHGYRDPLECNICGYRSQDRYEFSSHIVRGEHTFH
Chain of UniProt Q96SW2 (whole entry, looked up): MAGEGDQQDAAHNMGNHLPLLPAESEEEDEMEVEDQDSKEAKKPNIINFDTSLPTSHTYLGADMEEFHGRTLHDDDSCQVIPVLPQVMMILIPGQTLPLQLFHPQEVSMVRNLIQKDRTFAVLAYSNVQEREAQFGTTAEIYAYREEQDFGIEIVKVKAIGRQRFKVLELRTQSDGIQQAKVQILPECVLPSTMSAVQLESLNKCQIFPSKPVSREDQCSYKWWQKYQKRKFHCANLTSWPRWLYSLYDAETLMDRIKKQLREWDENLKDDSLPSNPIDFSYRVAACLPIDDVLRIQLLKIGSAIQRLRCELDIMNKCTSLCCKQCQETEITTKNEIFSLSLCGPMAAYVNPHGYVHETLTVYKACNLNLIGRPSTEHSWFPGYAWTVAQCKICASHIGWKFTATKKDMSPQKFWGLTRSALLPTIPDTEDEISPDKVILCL

Study 1
Target: Interferon regulatory factor 5, full length, phosphomimetic (IRF5, Homo sapiens, UniProt Q13568-2, residues 1-514, S451D/S453D/S456D/S462D)
Technique: protein-binding microarray
Molecule type: double-stranded DNA, one strand shown
Medium: in vitro
Concentration: 940 nM top
Setting: 60-bp whole probe
Added: salmon DNA 0.4 mg/ml
Baseline: random background probes
Direction: higher = stronger binding
Shared flanks, not repeated: GCCTAGCAC … GTCTTGATTCGCTTGACGCTGCTG
| Strand | fitted relative affinity [z-score] |
| --- | --- |
| GACGGTTTCGGTTTGGGGACGTGCTAG | 13.5 |
| CACCTTCTTCATCAAGGACAGTGCTAG | 0.564 |
| TCATCTCTGGTCTTTGTACTGTGCTAG | 1.33 |
| GACGGTGTCGGTTTCGGGACGTGCTAG | 3.88 |
| TCAGTTCTTATCCTTCCCACTGTGCTA | 1.33 |
| TTAGGTTTCGTTTTCGGTTAGTGCTAG | 10.2 |
| TGAGGTATCGACACTGGGTTAGTGCTA | 2.88 |
| TTAGGTCTGCTTATCCTTTAGTGCTAG | -0.275 |

Study 2
Target: CCND3, cyclin fold, Cln2 fusion (human)
Technique: yeast growth competition, sequencing
Medium: yeast
Setting: weak parent motif
Baseline: not given
Direction: higher = stronger binding
Starting sequence: viral docking peptide; KKVKRRLFETREL; partner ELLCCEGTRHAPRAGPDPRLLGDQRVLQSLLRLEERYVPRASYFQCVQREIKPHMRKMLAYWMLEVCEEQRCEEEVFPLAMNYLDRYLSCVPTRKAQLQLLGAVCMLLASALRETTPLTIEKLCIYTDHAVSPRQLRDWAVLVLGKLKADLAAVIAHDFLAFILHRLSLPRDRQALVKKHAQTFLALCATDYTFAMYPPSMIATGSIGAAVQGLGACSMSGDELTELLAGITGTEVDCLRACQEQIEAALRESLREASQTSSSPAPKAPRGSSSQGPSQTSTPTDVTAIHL
| Change | normalised enrichment score |
| --- | --- |
| KKVKRRLFETRAL [E12A] | 0.225 |
| KKVKARAFETREL [R5A L7A] | 0.0257 |
| KKVKRRLFETAEL [R11A] | 0.126 |
| KKVKRRLFATREL [E9A] | 0.119 |
| KKVKRRLLETREL [F8L] | 0.166 |
| KKVKRALFETREL [R6A] | 0.108 |
| KKVKRRLAETREL [F8A] | 0.0938 |
| KKVKRRAFETREL [L7A] | 0.279 |
| KKVKKRLLETREL [R5K F8L] | 0.625 |
| KKAKRRLFETREL [V3A] | 0.143 |

Further values, each from its own experiment
| Molecule | target or system | assay | system | setting | measurement | result |
| --- | --- | --- | --- | --- | --- | --- |
| RGPD3 (Homo sapiens, UniProt A6NKT7) | RGPD4 (Homo sapiens, UniProt Q7Z3J3) | cross-linking MS | – | hits only | interaction screen | cross-linked |
| O=C1CCC(N2Cc3c(ccc4c3OCC43CCN(Cc4ccsc4)CC3)C2=O)C(=O)N1 (centres unmarked) | CRBN/Zinc finger protein Helios (Homo sapiens, UniProt Q96SW2+Q9UKS7) | degrader, HiBiT | HEK293 | 123.5 nM | protein remaining | 23.9% |
